Experimental data collected from several papers.
Parts stem from different laboratories: compare values within a part only.
Sequence of UniProt Q9Y385 (whole entry, looked up): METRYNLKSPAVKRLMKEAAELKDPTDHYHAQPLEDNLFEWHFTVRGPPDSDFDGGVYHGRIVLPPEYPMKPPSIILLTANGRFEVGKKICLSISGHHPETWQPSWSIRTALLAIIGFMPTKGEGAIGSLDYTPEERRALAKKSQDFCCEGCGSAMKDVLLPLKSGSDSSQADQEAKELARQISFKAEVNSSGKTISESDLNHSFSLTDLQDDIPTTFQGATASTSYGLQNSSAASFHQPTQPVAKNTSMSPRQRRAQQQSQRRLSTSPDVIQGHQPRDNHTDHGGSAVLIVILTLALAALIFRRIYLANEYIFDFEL
Sequence of UniProt P63146 (whole entry, looked up): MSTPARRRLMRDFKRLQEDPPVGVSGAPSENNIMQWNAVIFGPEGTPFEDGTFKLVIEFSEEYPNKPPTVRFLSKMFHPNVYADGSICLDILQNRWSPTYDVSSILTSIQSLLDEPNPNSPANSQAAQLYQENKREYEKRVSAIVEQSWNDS
Sequence of UniProt Q9C0C9 (whole entry, looked up): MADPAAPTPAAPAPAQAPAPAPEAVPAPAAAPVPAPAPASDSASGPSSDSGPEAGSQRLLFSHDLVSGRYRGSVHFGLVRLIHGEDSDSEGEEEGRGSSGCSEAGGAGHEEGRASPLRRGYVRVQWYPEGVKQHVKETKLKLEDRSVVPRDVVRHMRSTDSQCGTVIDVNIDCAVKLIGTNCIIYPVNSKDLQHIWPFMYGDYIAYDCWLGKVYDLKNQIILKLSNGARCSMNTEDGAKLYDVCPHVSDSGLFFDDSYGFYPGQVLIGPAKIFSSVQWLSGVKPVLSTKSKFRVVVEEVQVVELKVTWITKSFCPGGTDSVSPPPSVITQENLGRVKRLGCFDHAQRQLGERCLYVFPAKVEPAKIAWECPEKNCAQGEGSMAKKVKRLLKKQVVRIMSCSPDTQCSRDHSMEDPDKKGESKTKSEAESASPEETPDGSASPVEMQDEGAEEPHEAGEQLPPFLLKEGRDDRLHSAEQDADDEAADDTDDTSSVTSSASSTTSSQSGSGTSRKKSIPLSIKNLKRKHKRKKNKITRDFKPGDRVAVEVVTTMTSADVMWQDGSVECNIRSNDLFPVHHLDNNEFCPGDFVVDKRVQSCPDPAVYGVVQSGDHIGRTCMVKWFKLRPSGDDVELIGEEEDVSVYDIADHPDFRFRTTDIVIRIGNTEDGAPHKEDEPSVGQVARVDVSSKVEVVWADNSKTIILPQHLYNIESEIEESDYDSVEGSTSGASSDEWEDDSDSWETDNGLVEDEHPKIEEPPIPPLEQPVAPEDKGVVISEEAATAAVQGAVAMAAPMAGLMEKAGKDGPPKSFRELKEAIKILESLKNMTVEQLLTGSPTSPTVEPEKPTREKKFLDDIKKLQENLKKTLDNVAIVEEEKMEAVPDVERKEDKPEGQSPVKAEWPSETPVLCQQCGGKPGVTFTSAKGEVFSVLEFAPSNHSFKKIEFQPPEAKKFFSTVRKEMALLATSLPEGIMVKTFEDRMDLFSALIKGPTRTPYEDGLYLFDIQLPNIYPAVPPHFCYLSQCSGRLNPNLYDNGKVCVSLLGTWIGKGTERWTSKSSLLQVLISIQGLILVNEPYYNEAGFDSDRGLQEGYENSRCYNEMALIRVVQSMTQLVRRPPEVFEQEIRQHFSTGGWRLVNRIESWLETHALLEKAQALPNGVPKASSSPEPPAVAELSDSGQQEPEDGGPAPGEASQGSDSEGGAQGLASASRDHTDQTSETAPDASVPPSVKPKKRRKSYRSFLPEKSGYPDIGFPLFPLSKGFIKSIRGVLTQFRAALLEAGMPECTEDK
Sequence of UniProt P62253 (whole entry, looked up): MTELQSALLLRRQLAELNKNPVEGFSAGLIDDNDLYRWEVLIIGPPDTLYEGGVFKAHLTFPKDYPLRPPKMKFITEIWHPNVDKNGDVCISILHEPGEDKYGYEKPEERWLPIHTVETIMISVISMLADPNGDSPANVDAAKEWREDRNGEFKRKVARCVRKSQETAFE
Sequence of UniProt Q16763 (whole entry, looked up): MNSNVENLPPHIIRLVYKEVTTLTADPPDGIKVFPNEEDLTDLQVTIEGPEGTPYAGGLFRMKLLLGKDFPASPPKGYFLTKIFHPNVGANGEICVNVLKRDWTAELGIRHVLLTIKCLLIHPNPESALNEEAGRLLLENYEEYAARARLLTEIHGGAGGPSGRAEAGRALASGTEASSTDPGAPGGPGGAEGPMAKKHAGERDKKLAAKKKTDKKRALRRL
Sequence of UniProt O00762 (whole entry, looked up): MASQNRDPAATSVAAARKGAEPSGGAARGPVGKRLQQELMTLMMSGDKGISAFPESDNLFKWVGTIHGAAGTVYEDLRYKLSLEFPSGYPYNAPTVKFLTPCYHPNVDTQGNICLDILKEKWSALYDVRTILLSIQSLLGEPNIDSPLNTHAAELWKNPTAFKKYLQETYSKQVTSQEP
Sequence of UniProt Q9NPD8 (whole entry, looked up): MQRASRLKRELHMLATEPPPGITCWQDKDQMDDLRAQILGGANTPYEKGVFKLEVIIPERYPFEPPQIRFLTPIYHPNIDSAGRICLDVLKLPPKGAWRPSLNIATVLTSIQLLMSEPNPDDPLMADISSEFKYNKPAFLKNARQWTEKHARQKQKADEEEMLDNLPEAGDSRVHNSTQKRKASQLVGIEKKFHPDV

Sample 1 — method: protein binding microarray; molecule type: double-stranded DNA, one strand shown; sample: in vitro; tested at: not given; reference: not given; reading: higher = stronger binding
Target: Histone acetyltransferase KAT6A, winged helix 2, GST fusion (KAT6A, Homo sapiens, UniProt Q92794, residues 85-181)
Notes: 8-mer, flanks averaged, mean of 2 arrays, mostly near background
Target sequence (chain): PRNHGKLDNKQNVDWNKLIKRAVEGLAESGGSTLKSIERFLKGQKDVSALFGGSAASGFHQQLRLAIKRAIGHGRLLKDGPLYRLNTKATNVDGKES
Strand | E-score
TAAGGGAA | -0.152
CGGCCTAC | 0.0092
ACCAAGCC | -0.0436
AAAGCCGT | 0.126
CGGAATCC | -0.209
ACGCGCTA | -0.119
GAGGTCCC | 0.0228
AAAAAACG | -0.0205
TAGGTCCA | -0.061
GCAAGCAA | 0.0519
ATGTCCTC | -0.0524
CAAGCGAA | 0.0473
CAAGTTCA | 0.109
CTCGCTCC | 0.208
AGCTTTGC | 0.0654
CGCTGGGC | 0.112
GTAGAGTA | -0.00932
ATAATTTA | 0.115
TCCTCGCA | 0.0764
TCCCATCA | -0.16
ACGTACAT | -0.0959
GCGCAAGA | 0.106
CTGTCGTC | 0.113
ACGCATAG | -0.107

Sample 2 — method: yeast two-hybrid; sample: yeast; notes: mostly zero background; reference: not given; reading: higher = stronger interaction
Molecule: FLSKVEETFQCICCQELVFRPITTVCQHNVCKDCLDRSFRAQVFSCPACRYDLGRSYAMQ (UHRF1 RING domain (UniProt Q96T88))
target | lacZ reporter activity
UBE2B UBC core domain (UniProt P63146) | 0
UBE2J1 UBC core domain (UniProt Q9Y385) | 0
UBE2C UBC core domain (UniProt O00762) | 0
UBE2S UBC core domain (UniProt Q16763) | 0
UBE2O UBC core domain (UniProt Q9C0C9) | 0
UBE2I UBC core domain (UniProt P63279) | 0
UBE2T UBC core domain (UniProt Q9NPD8) | 0
UBE2G1 UBC core domain (UniProt P62253) | 0

Sample 3 — organism: Saccharomyces cerevisiae; observed: binding; method: competitive growth deep sequencing; molecule type: peptide; strain: cyclin D2-Cln2 fusion strain; tested at: concentration not given; notes: peptide tiling library; reading: direction not given
Molecule | growth enrichment score
NRLLKLFTRCLTPLVP | -2.67
VSRNLRSSLKSSLHTL | -2.11
SPREGHMMDALYAQVK | 0.959
PPTFLSTGEIHAFLSS | -1.06
KVRRNLFNQELLSP | -0.691
NLEPNAEFDKRTEFIT | 0.752

Sample 4 — method: RNA Bind-n-Seq; molecule type: RNA; sample: in vitro; tested at: 365 nM; reference: no-protein control; reading: higher = stronger binding
Target: RNA binding protein fox-1 homolog 2, RRM domain, GST-SBP tag (RBFOX2, Homo sapiens, UniProt O43251-10, residues 100-194)
Notes: natural RNA segment, single round, ends assumed
Shared flanks, not repeated: GGGAGUUCUACAGUCCGACGAUC … UGGAAUUCUCGGGUGCCAA
Residues (chain): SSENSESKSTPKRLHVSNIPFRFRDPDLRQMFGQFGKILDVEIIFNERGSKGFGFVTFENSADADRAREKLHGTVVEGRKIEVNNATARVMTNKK
Strand | RBNS enrichment (R)
CACCGGUGUCCUGUUCCUGCCACAUGGAGCUUGACUUCAUGCCAGCUAUAAUCUCCCCUGCCUUCCUUUAAUCCCAAUUUCCCCUGCUCACUCUUCCACAGAUAUAAAGA | 0.699
UUUUAAAGGUAAAUUGCACUUUUAAAAAUUGGUUGACUUAAUAUAUUUGCUCUUUUUUUUUUUUUACCUGCACUUAGAGAGGAAAUUUGAACACCAGAAACCACUUUUUU | 1.55
CUGGCCUGGCCUCCUUUCCGUCCGGGCAGCUGUGCUGCAGAGACAAAAAGUGGUGCUGAGGGACUCCUAAGUCGGCCGUAGCACCUCGAGCCCUGGGCUUUGAAGGCAGC | 0.488
CCAUGUCCUAGCCUGUCUGCAUUUGUUAGUGGUAAUAUUCUUUAUGUAUAAUAAAUUUUUAUACCCAGCCAUUGAUGUACUUUUCCUUGUACUCUCCCUUGUGGGUCCCU | 0.681
AAAAUCAACCCUGGUGUUGAGAGAACGUCCUUCUGUCCAUCGUGGGUAACAGCCUUGGGGAGGGUGCAGAGCUCUGCAGAGCCAUGGGCCAGGUGGGGCUGCCUCAGUCC | 0.467
UCCUAAGUCCCUGCCCCCUCCCCUUCACACCAUAACUAGGUAACAGUUUGAUAACUAGGGAAGAAAGCAGAACAGUUAAGCAGCCGCCACAUCCCCGCUGGCUGGGGGCC | 0.299
CCCAGCACUACUCAGCAUGUAGUCCAGGACCUGCGGCAUCAGCAUCCCCUGGGAGCUUCUUAGAAAUGCAGACCUGUGGGCUCUACCACAGGCCUCUGGAAUCAGAAUCU | 4.57
GUAUCGUAUACUAUUAUGGAGUAUUUAAAAGACUCAAGUUCAAAUUAACAUGCUUCUUUUAUUCUUCAAAGCAAUUCUUUACAACCUGACCAUGUAAAAGAUCUGUUACC | 0.462

Sample 5 — method: RNA Bind-n-Seq; molecule type: RNA; sample: in vitro; tested at: 1 µM; notes: whole 134-nt RNA, ends assumed; together with: 150 mM KCl; reference: input library; reading: higher = stronger binding
Target: Ras GTPase-activating protein-binding protein 1, C-terminal RGG region (G3BP1, Homo sapiens, UniProt Q13283)
Sequence of UniProt Q13283 (whole entry, looked up): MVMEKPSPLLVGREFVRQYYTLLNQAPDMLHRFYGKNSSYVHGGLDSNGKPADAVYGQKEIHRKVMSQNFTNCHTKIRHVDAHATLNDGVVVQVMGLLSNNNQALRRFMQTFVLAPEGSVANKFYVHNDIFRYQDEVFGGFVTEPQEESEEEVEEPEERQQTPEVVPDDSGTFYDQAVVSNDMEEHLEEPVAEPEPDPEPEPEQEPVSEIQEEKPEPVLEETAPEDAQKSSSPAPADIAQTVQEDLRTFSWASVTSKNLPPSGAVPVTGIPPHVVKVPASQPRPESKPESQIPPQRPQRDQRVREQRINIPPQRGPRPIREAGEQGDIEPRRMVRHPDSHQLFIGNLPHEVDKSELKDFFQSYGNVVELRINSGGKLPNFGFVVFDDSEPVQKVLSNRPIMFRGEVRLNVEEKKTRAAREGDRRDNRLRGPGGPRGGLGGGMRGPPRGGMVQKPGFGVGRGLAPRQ
Shared flanks, not repeated: GGGAGUUCUACAGUCCGACGAUC … UGGAAUUCUCGGGUGUCAAGG
Strand | log2 enrichment
UGUGCUACACAUCGUAUGUACCGAAUCGGGGAAAAAAAGGGGUUUUUUUGGGGUUUUUGGGGAAAGUAUUAUGUUACGCCGUUCGGAUCU | 0.57
UAACUUUAGAGGAGGAUCUGAUGGAUAUGGCAGUGGACGUGGAUUUGGGGAUGGCUAUAAUGGGUAUAGAGGAGGACCUGGAGGUGGCAA | -0.847
ACCAUGCAGGUGGGCAUCUUUGGGAAGUGGGGCAAGGGGGGGAUAGGGAAAGGGGUAACACUUUGGGAACAGGUGGUCCCAGGUCGUUUC | -1.02
UCCUGUGCUACACAUCGUAUGUACCGAAUCGGGGUUUGGGGAAAGGGGAAAAAAAGGGGAAAGUAUUAUGUUACGCCGUUCGGAUCUGCA | 1.42
UGUGCUACACAUCGUAUGUACCGAAUCGGGGAAAAAAAGGAAAAAAAGGGGAAAAAAAGGGGAAAGUAUUAUGUUACGCCGUUCGGAUCU | -0.949
CUGUGCUACACAUCGUAUGUACCGAAUCGGGCCCCCCCGGGGCCCCCCCGGCCCCCCCGGGAAAGUAUUAUGUUACGCCGUUCGGAUCUG | -1.69
CAAUGGGAAUGGACCAAAGAGUUUCAGGGAAACUCCAGUAUAUUCCAGAGUCAGAUCUAAGCUCCAGGCACGCCUGAAGAUGUGUUGCUA | 0.394
CAAGUCCUGUGCUACACAUCGUAUGUACCGAAUCGGUUUUUGGUUUGGAAAAAGGAAAGUAUUAUGUUACGCCGUUCGGAUCUGCACUUC | -1.91
UGGGAGGUGGAUUUUGUUUAUUUUUUUAGCUCAUUUCCAGGGGUGGGAAUUUUUUUGUAAUAUGUGUCAUGAAUAAAGUUGUUUUUGAAA | 3.66

Excerpt of the above (sample 2):
target | lacZ reporter activity
UBE2B UBC core domain (UniProt P63146) | 0
UBE2J1 UBC core domain (UniProt Q9Y385) | 0
UBE2C UBC core domain (UniProt O00762) | 0
UBE2S UBC core domain (UniProt Q16763) | 0
UBE2O UBC core domain (UniProt Q9C0C9) | 0
UBE2I UBC core domain (UniProt P63279) | 0
UBE2T UBC core domain (UniProt Q9NPD8) | 0
